Measured values pooled from the literature.
Lines come from different studies, so protocols differ.

For Nc1ncnc2c([C@@H]3N[C@H](CO)[C@@H](O)[C@H]3O)c[nH]c12, the inhibition was 39.4% (Nipah henipavirus; viral replication; HeLa, Malaysia; 50 µM).
CCc1ccc(NC(=O)c2cc3c(=O)n4ccccc4nc3n2C)cc1 has an inhibition of 94% (Severe acute respiratory syndrome coronavirus 2; viral replication, inhibitor, qPCR; Vero C1008; 1 µM).
C=C[C@@](C)(/C=C/c1ccc(O)cc1)CCC=C(C)C gave an inhibition of 0% (Severe acute respiratory syndrome coronavirus 2; cytopathic effect; Vero C1008; 0.7812 µM).
For Cn1c(C(=O)Nc2ccc3c(c2)OCCO3)cc2c(=O)n3ccccc3nc21, the inhibition was 96.4% (Severe acute respiratory syndrome coronavirus 2; viral replication, inhibitor, qPCR; Vero C1008; 10 µM).
Under “subjects with adverse events”, CC[C@H](C)[C@H](NC(=O)[C@H](CC(C)C)NC(=O)[C@H](Cc1c[nH]c2ccccc12)NC(=O)[C@H](CCC(N)=O)NC(=O)[C@@H](NC(=O)[C@H](Cc1ccccc1)NC(=O)[C@H](C)NC(=O)[C@H](CCCCNC(=O)COCCOCCNC(=O)COCCOCCNC(=O)CC[C@H](NC(=O)CCCCCCCCCCCCCCCCCCC(=O)O)C(=O)O)NC(=O)[C@H](CCC(N)=O)NC(=O)[C@H](C)NC(=O)[C@@H](NC(=O)[C@H](CCCCN)NC(=O)[C@H](CC(=O)O)NC(=O)[C@H](CC(C)C)NC(=O)C(C)(C)NC(=O)[C@@H](NC(=O)[C@H](CO)NC(=O)[C@H](Cc1ccc(O)cc1)NC(=O)[C@H](CC(=O)O)NC(=O)[C@H](CO)NC(=O)[C@@H](NC(=O)[C@H](Cc1ccccc1)NC(=O)[C@@H](NC(=O)CNC(=O)[C@H](CCC(=O)O)NC(=O)C(C)(C)NC(=O)[C@@H](N)Cc1ccc(O)cc1)[C@@H](C)O)[C@@H](C)O)[C@@H](C)CC)[C@@H](C)CC)C(C)C)C(=O)N[C@@H](C)C(=O)NCC(=O)NCC(=O)N1CCC[C@H]1C(=O)N[C@@H](CO)C(=O)N[C@@H](CO)C(=O)NCC(=O)N[C@@H](C)C(=O)N1CCC[C@H]1C(=O)N1CCC[C@H]1C(=O)N1CCC[C@H]1C(=O)N[C@@H](CO)C(N)=O is recorded as 42.9% (measured: Nausea; healthy subjects; 5/5/8/10 mg titrated, multiple ascending dose).
Under “patients with adverse event”, Cn1cnc(Cn2c(=O)[nH]/c(=N\c3cc4cn(C)nc4cc3Cl)n(Cc3cc(F)c(F)cc3F)c2=O)n1 is recorded as 12.5% (human, mild renal impairment; oral, 375 mg, hypertriglyceridaemia TEAE, Moderate severity).
CC(C)=CCc1c(O)ccc(C(=O)/C=C/c2ccc(O)cc2)c1O gave an inhibition of 0% (Severe acute respiratory syndrome coronavirus 2; cytopathic effect, inhibitor; Vero C1008; 6.25 µM).
NC(=O)c1ncn([C@@H]2O[C@H](CO)[C@@H](O)[C@H]2O)n1 gave an inhibition of 12% (Severe acute respiratory syndrome coronavirus 2; viral replication, inhibitor; Vero; 20 µM).
With CNC(=O)[C@@H](NC(=O)[C@H](CC(C)C)[C@H](O)C(=O)NO)C(C)(C)C the remaining activity was 100% (Daboia russelii venom proteases (SVMP); protease activity, inhibitor; GA population; 0.001 µM, added: azocasein substrate; baseline: venom alone).
CC(=O)c1cccc(NC(=O)c2cc3c(=O)n4ccccc4nc3n2C)c1 has an inhibition of 97.1% (Severe acute respiratory syndrome coronavirus 2; viral replication, inhibitor, qPCR; Vero C1008; 10 µM).
O=C(/C=C/c1ccc(O)c(O)c1/C=C/c1ccc(O)c(O)c1)O[C@H](Cc1ccc(O)c(O)c1)C(=O)O gave an inhibition of 0% (Severe acute respiratory syndrome coronavirus 2; cytopathic effect; Vero C1008; 0.7812 µM).
Cn1cnc(Cn2c(=O)[nH]/c(=N\c3cc4cn(C)nc4cc3Cl)n(Cc3cc(F)c(F)cc3F)c2=O)n1 has an inhibition of 100% (Severe acute respiratory syndrome coronavirus 2; viral replication; Vero C1008; 4.167 µM).
CC1=C(/C=C/C(C)=C/C=C/C(C)=C/C(=O)Nc2ccc(O)cc2)C(C)(C)CCC1 gave an inhibition of ~15% (Severe acute respiratory syndrome coronavirus 2; viral replication, inhibitor; 2.5 µM).
